Published values from different studies.
Each numbered part is a random draw from the data of one study; scales do not carry over between parts.

Sample 1 — method: RNA Bind-n-Seq; form: RNA; matrix: in vitro; concentration: 365 nM; baseline: no-protein control; direction: higher = stronger binding; measurement: RBNS enrichment (R)
Target: RNA binding protein fox-1 homolog 2, RRM domain, GST-SBP tag (RBFOX2, Homo sapiens, UniProt O43251-10, residues 100-194)
Setting: natural RNA segment, single round, ends assumed
Constant ends, left off below: GGGAGUUCUACAGUCCGACGAUC … UGGAAUUCUCGGGUGCCAA
Target sequence (chain): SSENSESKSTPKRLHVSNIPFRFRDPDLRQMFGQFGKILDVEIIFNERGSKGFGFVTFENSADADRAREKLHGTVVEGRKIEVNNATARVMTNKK
UUUUUUUAGAUCUUAUAUUGUGUUUUGUAUGCAGCCCUUUUAGAACUACUUGUAGUGAGGGUGCUGUGUGUGCUUUUCUUAAAUAUUUAUUUUUUUCAACAUGCUUUCAA: 1.48
GUCCUGCAUUUCCAUCAGGGUUUCCACAGUCAUCAGGGCUUCUCUCUUGAGUUGCUGAUAGGAGAUGUGAGUUAUGCCCAGAGAUGUCUUAUCGUGAGGAAAAAGAAACU: 0.32
UGCUCUUCUGUCCUGCCUCACUGUAACUGCCUCCAUUCUGUGCAGUCUACAGUAAGAAUGCCUGCUUCCAAGACUCAGAUACAUAGGGACGUUUUUACCCGUUCCGUAGA: 0.816
AGCCUCUGAGACUAUCGCUCUUAACCAUGGAAAAGCUCAAAAUAUUCUUGCCAUUACUCAGUGUUCCUAUAAAGAAAAUAUUAUGAUAUCUUGGAAAGGUUCUAUUCCUG: 0.377
GGGAACUCCUCUCCCCCAUUUUGUGUAGAGUGAAAAUAGCCUGAAGCCCCUACUCAGCAGGGCUCUGGGAAUGUGCCUUCCUUAUUUUAGUUUCAGAAUUGCUGGGAAAG: 2.11
GCCAUAUUCAUGCAGGUGCUAACCGCCUUUUCUACUGGUGCAACUGAAAGGAAUAUGGUAACAUGGUUGGAUUUUUAAAAUUCACAAUGAAGGAACGAGACAAGCAAAAC: 0.383
UCUUUGUAACUCACUUGGUAAAAGCAAAUGUCUUGUCUCCUUCAGUGGUUCUUUGAAGCUUAGUGAGGCGGAGGCUGCCAGUGUUGGUACCUGUGGAUUUUCCAAUAGUG: 0.332
CCUGGACAGCACAGAUCCAGUGUGUUGCUGGCACUUGAGGUGUAAUAAAUGGCCUGGGGUGCUGCCUCUUUCUCUUGUUGCUCUGGGGGUACUGGGGAGGAGGAGAGGUG: 0.551

Sample 2 — method: protein binding microarray; form: double-stranded DNA, one strand shown; matrix: in vitro; concentration: not given; baseline: not given; direction: higher = stronger binding; measurement: E-score
Target: Histone acetyltransferase KAT6A, winged helix 2, GST fusion (KAT6A, Homo sapiens, UniProt Q92794, residues 85-181)
Setting: 8-mer, flanks averaged, mean of 2 arrays, mostly near background
Residues (chain): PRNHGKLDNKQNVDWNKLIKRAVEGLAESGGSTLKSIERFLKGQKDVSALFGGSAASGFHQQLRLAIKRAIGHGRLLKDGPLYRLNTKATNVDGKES
GGTCGACC: 0.147
AATCGATC: -0.00755
ATGTAGAG: -0.0361
ATGGACAG: -0.0885
CAAGCTAA: -0.00309
CTCTTATA: 0.0255
GTTTGTGA: 0.137
ACACTATG: -0.101
GTGACTGA: -0.0916
AGCCCCAA: -0.113
ACAGGCAC: -0.121
ACACGGCG: 0.156
AAACACTC: -0.0918
AAGTTATC: 0.0519
ATGCGGCA: 0.00047
ACGGCGAA: 0.204
AATGCACA: 0.126
GCGGCTCA: 0.134
GCCGGCCC: 0.237
GAGATTTA: 0.0807
CAGAGGGC: 0.14
ACACAGCA: 0.153
CGAGGGCG: 0.068
ACTAAAGC: 0.183
AGTGGGTA: 0.063

Sample 3 — method: protein-binding microarray; form: double-stranded DNA, one strand shown; matrix: in vitro; concentration: 0.8 µM; setting: whole 60-bp probe, no competitor; direction: higher = stronger binding; measurement: fluorescence intensity; constant ends, left off below: … GTCTTGATTCGCTTGACGCTGCTG
Target: Centromere-binding protein 1, full length, N-terminal tag (CBF1, Saccharomyces cerevisiae, UniProt P17106, residues 1-351)
UniProt P17106, sequence (whole entry, looked up): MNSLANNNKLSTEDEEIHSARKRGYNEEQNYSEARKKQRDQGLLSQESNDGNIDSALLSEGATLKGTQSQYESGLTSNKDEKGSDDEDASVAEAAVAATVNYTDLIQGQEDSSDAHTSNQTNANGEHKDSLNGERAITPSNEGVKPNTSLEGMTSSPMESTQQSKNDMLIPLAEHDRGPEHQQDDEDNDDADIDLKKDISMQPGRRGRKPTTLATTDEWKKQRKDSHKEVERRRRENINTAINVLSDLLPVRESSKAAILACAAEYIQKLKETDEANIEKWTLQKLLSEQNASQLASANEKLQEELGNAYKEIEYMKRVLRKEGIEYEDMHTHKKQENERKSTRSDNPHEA
GAATTTCGGGAAGATCACAACAGTAGTAGCAAGTAG: 516 a.u.
CTATAGGAATTGTGCGTGGTCATTCAATACGGATTC: 550 a.u.
CTATTAAGTTGAAATCACGCTAACATATGACTATTC: 768 a.u.
CTAGCATCATACTACCACGATCACAGTTCACGATTC: 558 a.u.
GAATGAAAGTTCTTGAACGTGAAAGAAAGAAAATAG: 554 a.u.
GAACAGACTGGAAATTCCACCACCTCTCTTCCATAG: 523 a.u.
CTAGTAATCATATTTCAGTCACCTTTTTCCCTTTTC: 496 a.u.
GAAATGTTTTTGAACACCACCATCAGCCATACATAG: 508 a.u.
GAAAACCTCATTCGTCATGTGAGAGATGCATGCTAG: 1030 a.u.
GAAATTTTATTAAGACACGTTTATCAATTGCCGTAG: 619 a.u.
CCTAACTACTATAGACATGTGTTATAGCTTCGTACA: 633 a.u.
TGTACGAAGCTATGGCACGGCACTATAGTAGTTAGG: 513 a.u.
CTAGCTTGAAGTGATGATGTTACATGTCAAAGATTC: 554 a.u.
CTAAGCAAAACTGTTGTCGTGATTTATTTAAATTTC: 643 a.u.
CCTAACTACTATAATCACCTTACATAGCTTCGTACA: 537 a.u.
GAATCTAACAAAAATCATGTGAAAAATCATGTGTAG: 958 a.u.
GAACTTTTGTTCTTCCACGTTCAAATTTCTTTGTAG: 528 a.u.
CTAAACTAACTATATAACGTGGCATATTAAAGATTC: 639 a.u.
TGTACGAAGCTATATCATGCACTTATAGTAGTTAGG: 492 a.u.

Sample 4 — method: RNA Bind-n-Seq; form: RNA; matrix: in vitro; concentration: 1 µM; setting: whole 134-nt RNA, ends assumed; together with: 150 mM KCl; baseline: input library; direction: higher = stronger binding; measurement: log2 enrichment
Target: Ras GTPase-activating protein-binding protein 1, RRM domain (G3BP1, Homo sapiens, UniProt Q13283)
UniProt Q13283, sequence (whole entry, looked up): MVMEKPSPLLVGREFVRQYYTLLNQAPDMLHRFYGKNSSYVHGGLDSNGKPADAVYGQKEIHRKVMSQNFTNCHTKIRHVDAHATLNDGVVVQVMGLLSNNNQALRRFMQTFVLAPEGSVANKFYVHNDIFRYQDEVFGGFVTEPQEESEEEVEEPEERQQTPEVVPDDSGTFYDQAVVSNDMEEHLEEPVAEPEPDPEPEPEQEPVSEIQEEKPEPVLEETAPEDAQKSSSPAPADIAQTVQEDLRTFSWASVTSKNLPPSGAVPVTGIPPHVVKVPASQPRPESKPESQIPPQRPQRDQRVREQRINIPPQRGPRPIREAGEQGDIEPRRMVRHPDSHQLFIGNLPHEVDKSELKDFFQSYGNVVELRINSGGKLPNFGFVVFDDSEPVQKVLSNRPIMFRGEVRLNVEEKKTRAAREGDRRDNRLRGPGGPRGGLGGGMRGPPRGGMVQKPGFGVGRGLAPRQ
Constant ends, left off below: GGGAGUUCUACAGUCCGACGAUC … UGGAAUUCUCGGGUGUCAAGG
UGGCCCUGGUGGCAUGCGGGGAGGAAGAGGUGGCCGCAUGGAUCGUGGUGGUCCCGGUGGAAUGUUCAGAGGUGGCCGUGGUGGAGACAG: 0.98
CUGUGCUACACAUCGUAUGUACCGAAUCAAAGUGUGUGUGUGUGUAAAGUGUGUGUGUAAAAAAGUAUUAUGUUACGCCGUUCGGAUCUG: -0.157
CCUGUGCUACACAUCGUAUGUACCGAAUCGGGUUUUUUUGGGAAAAAAAGGGUUUUUGGGAAAGUAUUAUGUUACGCCGUUCGGAUCUGC: -0.411
ACCAUGCAGGUGGGCAUCUUUGGGAAGUGGGGCAAGGGGAAAAUAGGGAGGGGGGUAACACUUUGGGAACAGGUGGUCCCAGGUCGUUUC: -0.165
UCAAGUCCUGUGCUACACAUCGUAUGUACCGAAUCGGGAAAAAGGGUGGGUGGGAAAGUAUUAUGUUACGCCGUUCGGAUCUGCACUUCC: 0.607
CAAGUCCUGUGCUACACAUCGUAUGUACCGAAUCGGAAAGGGGAAAGGAAAGGGGAAAGUAUUAUGUUACGCCGUUCGGAUCUGCACUUC: -0.09
AAGUCCUGUGCUACACAUCGUAUGUACCGAAUCGGGAGGGAAAGGGAAAAAAAGGGAAAGUAUUAUGUUACGCCGUUCGGAUCUGCACUU: 0.495
AGUCCUGUGCUACACAUCGUAUGUACCGAAUCGGCCCCCGGGCCCCCGGGGCCCCCGGAAAGUAUUAUGUUACGCCGUUCGGAUCUGCAC: -0.559
AAGUCCUGUGCUACACAUCGUAUGUACCGAAUCGGGGAGGGGUUUGGGGAAAGGGGAAAGUAUUAUGUUACGCCGUUCGGAUCUGCACUU: 1.45

Some of these lines once more (sample 1):
UUUUUUUAGAUCUUAUAUUGUGUUUUGUAUGCAGCCCUUUUAGAACUACUUGUAGUGAGGGUGCUGUGUGUGCUUUUCUUAAAUAUUUAUUUUUUUCAACAUGCUUUCAA: 1.48
GUCCUGCAUUUCCAUCAGGGUUUCCACAGUCAUCAGGGCUUCUCUCUUGAGUUGCUGAUAGGAGAUGUGAGUUAUGCCCAGAGAUGUCUUAUCGUGAGGAAAAAGAAACU: 0.32
UGCUCUUCUGUCCUGCCUCACUGUAACUGCCUCCAUUCUGUGCAGUCUACAGUAAGAAUGCCUGCUUCCAAGACUCAGAUACAUAGGGACGUUUUUACCCGUUCCGUAGA: 0.816
AGCCUCUGAGACUAUCGCUCUUAACCAUGGAAAAGCUCAAAAUAUUCUUGCCAUUACUCAGUGUUCCUAUAAAGAAAAUAUUAUGAUAUCUUGGAAAGGUUCUAUUCCUG: 0.377
GGGAACUCCUCUCCCCCAUUUUGUGUAGAGUGAAAAUAGCCUGAAGCCCCUACUCAGCAGGGCUCUGGGAAUGUGCCUUCCUUAUUUUAGUUUCAGAAUUGCUGGGAAAG: 2.11
GCCAUAUUCAUGCAGGUGCUAACCGCCUUUUCUACUGGUGCAACUGAAAGGAAUAUGGUAACAUGGUUGGAUUUUUAAAAUUCACAAUGAAGGAACGAGACAAGCAAAAC: 0.383
UCUUUGUAACUCACUUGGUAAAAGCAAAUGUCUUGUCUCCUUCAGUGGUUCUUUGAAGCUUAGUGAGGCGGAGGCUGCCAGUGUUGGUACCUGUGGAUUUUCCAAUAGUG: 0.332
CCUGGACAGCACAGAUCCAGUGUGUUGCUGGCACUUGAGGUGUAAUAAAUGGCCUGGGGUGCUGCCUCUUUCUCUUGUUGCUCUGGGGGUACUGGGGAGGAGGAGAGGUG: 0.551
